Published values of several laboratories.
Lines come from different studies, so protocols differ. Numbers after ± are the reported error.

The IC50 of `Cc1ccn2c(Nc3ccc(C(=O)NO)cc3)cnc2c1` is reported as 8.13 µM (CAL-27; HDAC activity, inhibitor, whole-cell).
`C=C(C)[C@@H]1CC[C@]2(C(=O)O)CC[C@]3(C)[C@H](CC[C@@H]4[C@@]5(C)CC[C@H](O[C@@H]6O[C@@H](C)[C@H](O)[C@@H](O)[C@H]6OC)C(C)(C)[C@@H]5CC[C@]43C)[C@@H]12` gave an IC50 of 5.4 µM (DLD-1; cell growth or viability, fluorescence; 48 h).
`CN(C)CCO/N=C1/C=C2CCC3C(CC[C@]4(C)/C(=C/c5ccccn5)CCC34)[C@@]2(C)CC1` (some centres unmarked) gave an IC50 of 22.7 µM (CEM; cytotoxicity, alamarBlue; 72 h).
For `CC(C)C[C@@H]1NC(=O)[C@H](CCCCN)NC(=O)CN(S(C)(=O)=O)CCNC(=O)[C@H](Cc2c[nH]c3ccccc23)NC(=O)[C@H](CO)NC(=O)[C@H](C(C)C)NC(=O)[C@H](C(C)C)NC(=O)[C@H](C)NC(=O)CN(S(C)(=O)=O)CCNC(=O)[C@H](CCCCN)NC(=O)[C@H](CC(C)C)NC(=O)[C@H](CCCCN)NC1=O`, the IC50 was 31.1 µM (NCI-H929; viability, TO-PRO-3 staining, flow cytometry).
`CC(C)(C)OC(=O)NC(Cc1c[nH]c2ccccc12)C(=O)OC1CC2(C)C(CC(O)C3C(C4(C)CCCC(C)(C)O4)CCC32C)C2(C)CCC(OC(=O)C(Cc3c[nH]c4ccccc34)NC(=O)OC(C)(C)C)C(C)(C)C12` (centres unmarked) has an IC50 of 11.4 ± 0.16 µM (Hep3B; HRE reporter gene, inhibitor; 24 h, hypoxia).
With `C#CCOc1ccc(C(=O)c2ccc(NC(=O)C(=O)NCCc3ccc(OC)cc3)cc2)cc1` the IC50 was greater than 10 µM (NSCLC cell lines; cell viability; seven other cell lines).
`Cn1cc(-c2cc(N3CCCCS3(=O)=O)ccc2N[C@H]2CC[C@H](C)CC2)c2cc[nH]c2c1=O` (stereo in doubt) has an IC50 of 0.00043 µM (Light2 cells transfected with GLI2; GLI-luciferase reporter, inhibitor, measured: GLI2).
`CSC(=S)N/N=C(\C)c1ccc(Nc2nnc(-c3ccc(Cl)cc3)c3ccccc23)cc1` gave an IC50 of 0.2 µM (HepG2; cell growth or viability, MTT).
`CCc1n(CC(=O)O[C@@H]2C[C@H](C)CC[C@H]2C(C)C)c2ccccc2[n+]1C` has an IC50 of 0.15 µM (HTS; cell growth or viability, ATP luminescence; 96 h).
With `CC(C)Cc1ccc(C(C)C(=O)N/N=C/c2ccc(OCC(=O)N/N=C/c3cccc(O)c3)cc2)cc1` (centres unmarked) the IC50 was 62.89 ± 0.15 µM (U87 MG; cytotoxicity, MTT).
`O=C(/C=C/c1ccccc1)c1ccc(O)cc1` gave an IC50 of 28.2 µM (human cells; NF-κB reporter gene, inhibitor; added: TNF-alpha).
The IC50 of `COc1cc(CC(=O)N2CC(=O)N[C@@H](Cc3ccccc3)CN(C(=O)Cc3ccc4ccccc4c3)CC(=O)N[C@@H](CCCCN)CN(C(=O)Cc3ccc4c(c3)OCO4)CC(=O)N[C@@H](CCCCN)CN(CC(N)=O)C(=O)CCSCc3ccc(cc3)C(=O)N[C@@H](CC(C)C)C2)cc(OC)c1` is reported as 10.6 µM (SK-BR-3; western blot, measured: phospho-ERK; 4 h).
The IC50 of `CC1(C)CCCC(C)(C2CCC3(C)C2C(O)CC2C4(C)CCC(OC(=O)/C=C\c5ccccc5)C(C)(C)C4C(O)CC23C)O1` (centres unmarked) is reported as greater than 30 µM (Hep3B; HRE reporter gene, inhibitor; 24 h, hypoxia).
The IC50 of `COc1cc(N2CCN(C)CC2)ccc1Nc1ncc2c(n1)N(C)c1ccc(C)cc1C(=O)N2CC(F)(F)F` is reported as greater than 20 µM (PaTu 8902; cell growth or viability; 5 days).
`CCCC[C@@H]1NC(=O)CN(S(C)(=O)=O)CCNC(=O)[C@H](CCCCN)NC(=O)[C@H](CC(C)C)NC(=O)[C@H](CCCCN)NC(=O)[C@H](CC(C)C)NC(=O)[C@H](CCCCN)NC(=O)COC[C@H]2CCCN2C(=O)[C@H](Cc2c[nH]c3ccccc23)NC(=O)[C@H](C)NC(=O)[C@H](CC(C)C)NC(=O)[C@H](C(C)C)NC1=O` gave an IC50 of 10.6 µM (NCI-H929; viability, TO-PRO-3 staining, flow cytometry).
`C=CCc1ccc(O)c(-c2cc(CC=C)ccc2OCCCCCCCCCC[P+](c2ccccc2)(c2ccccc2)c2ccccc2)c1` gave an IC50 of 0.29 µM (UACC-62-R (PLX4720-resistant); cell proliferation, inhibitor).
`C=CC(OC(C)=O)c1cc(OC)c(OC(C)=O)c(OC)c1` (centres unmarked) has an IC50 of greater than 50 µM (HMEC; MTT; 24 h).
Under IC50, `C=C1C(=O)OC2CC3=C[C@@H](C/C(C)=C/C(OC(=O)Cc4cccc5ccccc45)[C@H]12)OC3=O` (some centres unmarked) is recorded as “no inhibition” (M10 normal mammary cells; cell viability, MTT; 24 h).
With `CC(C)[C@H](N)C(=O)OC1CCC2(C)C(C(O)CC3(C)C2CC(O)C2C(C4(C)CCCC(C)(C)O4)CCC23C)C1(C)C` (some centres unmarked) the IC50 was 1.51 ± 0.15 µM (Hep3B; HRE reporter gene, inhibitor; 24 h, hypoxia).
`O=[N+]([O-])c1ccc(/N=N/c2ccc(O)c(O)c2)cc1` has an IC50 of 2.65 µM (HPNE; cell growth or viability, resazurin; 72 h).
The IC50 of `C=CC(OC(C)=O)c1ccc(OC(C)=O)c(OC)c1` (centres unmarked) is reported as greater than 50 µM (HMEC; MTT; 24 h).
The IC50 of `O=c1[nH]c2ccccc2nc1/C=C/C=C/c1ccccc1` is reported as 12.9 µM (HeLa 229; cell growth or viability, MTT; 72 h).
With `COc1ccc(-c2ocnc2-c2cc(Br)c(OC)c(OC)c2)cc1OCCCC(=O)NO` the IC50 was 0.6 µM (Huh-7; cell growth or viability, crystal violet; 48 h).
For `COc1cccc2cc(C(=O)NNC(N)=S)c(=O)oc12`, the IC50 was 25.8 µM (EA.hy 926; cell growth or viability, SRB; 72 h).
For `COc1ccc(-n2cc(C(=O)OC3CC4(C)C(CC(O)C5C(C6(C)CCCC(C)(C)O6)CCC54C)C4(C)CCC(OC(=O)c5cn(-c6ccc(OC)cc6)nn5)C(C)(C)C34)nn2)cc1` (centres unmarked), the IC50 was greater than 30 µM (Hep3B; HRE reporter gene, inhibitor; 24 h, hypoxia).
`O=[N+]([O-])c1ccc(C=[N+]2N=C(Nc3ccccc3)[S][Pt-]2([Cl])[Cl])s1` has an IC50 of 3.4 µM (MDCK; cell proliferation).
With `COc1cc([C@@H]2c3cc4c(cc3[C@H](OC(=O)CCCc3ccc(NS(=O)(=O)c5ccccc5Br)cc3)[C@H]3COC(=O)[C@H]23)OCO4)cc(OC)c1OC` the IC50 was 8.11 µM (NCI-H446; cell growth or viability, CCK-8; 24 h).
`[Cl][Pd-]1([Cl])[S]C(Nc2ccccc2)=N[N+]1=Cc1ccc(-c2ccccc2)s1` gave an IC50 of 100 µM (MDCK; cell proliferation).
With `N[C@@H](CCC(=O)N[C@@H](CS[Se]Cc1ccc(-c2cc(C(F)(F)F)nn2-c2ccc(S(N)(=O)=O)cc2)cc1)C(=O)NCC(=O)O)C(=O)O` the IC50 was 20.6 ± 1.7 µM (UACC-903 melanoma cells; cell viability, MTS; 48 h, metastatic stage).
With `C[N+]1(C)CC[NH2+][Pt-2]1([OH])([Cl])([Cl])[O]C(=O)CCC(=O)OCCOC(=O)CCC(=O)[O][Pt-2]1([OH])([Cl])([Cl])[NH2+]CC[N+]1(C)C` the IC50 was 137 ± 6 µM (P31; cell viability, EZ4U; 96 h).
With `Cc1nccn1-c1nc(NN=Cc2c[nH]c3ccccc23)nc(Nc2ccc(Br)cc2)n1` the IC50 was 0.6 µM (SK-BR-3; cell growth or viability, SRB; 5 days).
For `CC(C)=CCOc1ccc(-c2coc3cc4c(c(O)c3c2=O)C=CC(C)(C)O4)cc1`, the IC50 was greater than 100 µM (Huh-7; cell growth or viability, MTT; 24 h).
`c1n[nH]cc1-c1nc2ccc3[nH]ncc3c2c2c1CCCC2` gave an IC50 of 0.0615 µM (MOLM-14; cell growth or viability, resazurin; 72 h).
`O=C(/C=C(O)/C=C/c1cccs1)/C=C/c1cccs1` has an IC50 of 59.9 µM (EA.hy 926; cell growth or viability, SRB; 72 h).
`COc1ccc(C(c2c[nH]c3ccc(OC)cc23)c2c[nH]c3ccc(OC)cc23)cc1` gave an IC50 of 8.89 µM (B16; cell growth or viability, MTT; 24 h).
`C=CCOC(=O)[C@]12CS[C@H](c3ccccc3)N1C(=O)/C(=C(\O)CCc1ccccc1)C2=O` gave an IC50 of 7.81 µg/mL (MDCK; cell growth or viability, resazurin).
`Cc1c(OCc2ccccc2)c(=O)ccn1CCCOC(=O)c1ccc(Br)cc1` has an IC50 of 71 µg/mL (fibroblast cells; cell viability, MTT; 48 h).
`CC1(C)Cc2c(-c3ccccc3)c(-c3ccc(Cl)cc3)c(CC(=O)O)n2C1` has an IC50 of 0.85 µM (THP-1-derived macrophages; PGI2 production; added: LPS).
With `COc1cc(CN2CCN(c3ccc(OC(F)(F)F)cc3)CC2)c2cc3[n+](cc2c1O)CCc1cc2c(cc1-3)OCO2` the IC50 was 4.98 µg/mL (Ca-Ski; cell growth or viability, SRB; 48 h).
`NC1=N[N+](=Cc2c3ccccc3cc3ccccc23)[Ga-3]23([S]1)([S]C(N)=N[N+]2=Cc1c2ccccc2cc2ccccc12)[S]C(N)=N[N+]3=Cc1c2ccccc2cc2ccccc12` gave an IC50 of 16.5 ± 2.2 µM (Caco-2; 24 h).
For `CC1(C)CCCC(C)(C2CCC3(C)C2C(O)CC2C4(C)CCC(OC(=O)c5cn(-c6ccccc6)nn5)C(C)(C)C4C(O)CC23C)O1` (centres unmarked), the IC50 was 0.43 ± 0.06 µM (Hep3B; HRE reporter gene, inhibitor; 24 h, hypoxia).
`C[C@]12CC/C(=N/O)C=C1CCC1C2CC[C@]2(C)/C(=C/c3ccccn3)CCC12` (some centres unmarked) gave an IC50 of greater than 50 µM (CEM; cytotoxicity, alamarBlue; 72 h).
With `CSCC[C@@H]1NC(=O)CN(S(C)(=O)=O)CCNC(=O)[C@H](CCCCN)NC(=O)[C@H](CC(C)C)NC(=O)[C@H](CCCCN)NC(=O)[C@H](CC(C)C)NC(=O)[C@H](CCCCN)NC(=O)CN(S(C)(=O)=O)CCNC(=O)[C@H](C)NC(=O)[C@H](CO)NC(=O)[C@H](C(C)C)NC(=O)[C@H](C(C)C)NC1=O` the IC50 was 57.1 µM (NCI-H929; viability, TO-PRO-3 staining, flow cytometry).
For `CC(C)C1OC(=O)C(NC(=O)c2cccc(O)c2)C(C)OC(=O)C(C(C)C)OC(=O)C(C)(C)C(=O)C(Cc2ccccc2)OC1=O` (centres unmarked), the IC50 was 9.61 ± 0.624 µM (PC-9/GR gefitinib-resistant; cell viability, CCK-8; 72 h).
For `CC(C)C(NC(=O)OC(C)(C)C)C(=O)OC1CC2(C)C(CC(O)C3C(C4(C)CCCC(C)(C)O4)CCC32C)C2(C)CCC(OC(=O)C(NC(=O)OC(C)(C)C)C(C)C)C(C)(C)C12` (centres unmarked), the IC50 was greater than 30 µM (Hep3B; HRE reporter gene, inhibitor; 24 h, hypoxia).
`COc1cc(CN2CCN(c3ccccc3[N+](=O)[O-])CC2)c2cc3[n+](cc2c1O)CCc1cc2c(cc1-3)OCO2` has an IC50 of 4.67 µg/mL (Ca-Ski; cell growth or viability, SRB; 48 h).
`CC1(C)CCCC(C)(C2CCC3(C)C2C(O)CC2C4(C)CCC(OC(=O)/C=C\c5ccc(Cl)cc5)C(C)(C)C4C(O)CC23C)O1` (centres unmarked) has an IC50 of 6.07 ± 0.07 µM (Hep3B; HRE reporter gene, inhibitor; 24 h, hypoxia).
`O=C(NO)c1ccc(Nc2cnc3ccccn23)cc1` gave an IC50 of 13.9 µM (CAL-27; HDAC activity, inhibitor, whole-cell).
`Oc1cccc2[nH]c(/C(=N/OCc3ccccc3)c3cc4cccc(O)c4o3)nc12` has an IC50 of 31.4 µM (NCI-H358; cell growth or viability, ATP luminescence; 72 h).
The IC50 of `COc1ccc(/C=C/C(=O)c2ccccc2)cc1` is reported as 28.8 µM (human cells; NF-κB reporter gene, inhibitor; added: TNF-alpha).

A few entries again:
`CN(C)CCO/N=C1/C=C2CCC3C(CC[C@]4(C)/C(=C/c5ccccn5)CCC34)[C@@]2(C)CC1` (some centres unmarked) gave an IC50 of 22.7 µM (CEM; cytotoxicity, alamarBlue; 72 h).
For `CC(C)C[C@@H]1NC(=O)[C@H](CCCCN)NC(=O)CN(S(C)(=O)=O)CCNC(=O)[C@H](Cc2c[nH]c3ccccc23)NC(=O)[C@H](CO)NC(=O)[C@H](C(C)C)NC(=O)[C@H](C(C)C)NC(=O)[C@H](C)NC(=O)CN(S(C)(=O)=O)CCNC(=O)[C@H](CCCCN)NC(=O)[C@H](CC(C)C)NC(=O)[C@H](CCCCN)NC1=O`, the IC50 was 31.1 µM (NCI-H929; viability, TO-PRO-3 staining, flow cytometry).
`CC(C)(C)OC(=O)NC(Cc1c[nH]c2ccccc12)C(=O)OC1CC2(C)C(CC(O)C3C(C4(C)CCCC(C)(C)O4)CCC32C)C2(C)CCC(OC(=O)C(Cc3c[nH]c4ccccc34)NC(=O)OC(C)(C)C)C(C)(C)C12` (centres unmarked) has an IC50 of 11.4 ± 0.16 µM (Hep3B; HRE reporter gene, inhibitor; 24 h, hypoxia).
With `C#CCOc1ccc(C(=O)c2ccc(NC(=O)C(=O)NCCc3ccc(OC)cc3)cc2)cc1` the IC50 was greater than 10 µM (NSCLC cell lines; cell viability; seven other cell lines).
